Assay results from different studies.
Each numbered part is a random draw from the data of one study; scales do not carry over between parts.

Set 1
Target: RING finger protein unkempt homolog, zinc fingers 1-6, GST-SBP tag (UNK, Homo sapiens, UniProt Q9C0B0, residues 30-357)
Chain of UniProt Q9C0B0 (30-357, looked up): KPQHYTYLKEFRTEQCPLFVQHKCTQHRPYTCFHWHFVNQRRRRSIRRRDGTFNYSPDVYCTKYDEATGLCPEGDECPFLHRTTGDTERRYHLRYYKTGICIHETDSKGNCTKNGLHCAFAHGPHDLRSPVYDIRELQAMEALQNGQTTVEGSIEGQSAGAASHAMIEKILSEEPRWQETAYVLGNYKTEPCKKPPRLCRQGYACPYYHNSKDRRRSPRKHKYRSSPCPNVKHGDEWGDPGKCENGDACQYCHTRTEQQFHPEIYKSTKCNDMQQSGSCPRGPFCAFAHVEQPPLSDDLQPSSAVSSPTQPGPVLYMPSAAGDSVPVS
Technique: RNA Bind-n-Seq
Form: RNA
Medium: in vitro
Concentration: not given
Notes: RNA with constant flanks, human and mouse sites, ends assumed
Relative to: input RNA pool
Reading: higher = stronger binding
Sequence | bound/input enrichment
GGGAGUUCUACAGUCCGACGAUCGGAUAAUCCAGAGAGGUUAAUCUAUCUUUAUUAUCAUAAAGCAUUGAUGGAGUAGUCACUCUGUAAUUGCCAAUACUGAAUAUGAGAAAUAUUUGGUAAAUUUUGUUUAAUUUUUUGCUACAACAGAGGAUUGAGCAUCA | 0.133 ratio
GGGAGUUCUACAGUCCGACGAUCACCCUGGAAGAAGAAACAGUGAUGCUUGCAAUGACUCCAGAUGAUUUACAGGAGAAAGAAGUAGCUUAUUGUUCCACAUAUACACACUGUGAGAUUCAUCCCUCAAUGAUCCUUGGUGUCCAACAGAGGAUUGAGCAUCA | 0.255 ratio
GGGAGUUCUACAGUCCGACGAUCUGUAGUUCUGAAUACACAGGUUUUGUGUGUAUUUACUCUAUGUAUUAAAUUAUUAUUGCCCUUAGUUUAAAGUAAGGAUUACAAUUGGAUUUAAGUAGAUCACUGAAUGUUAUUGUUUAUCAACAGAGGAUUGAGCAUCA | 2.84 ratio
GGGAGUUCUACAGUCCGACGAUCUCCCCUUCUUUCUCUGCUGAUUUUGCACUUUUCUCUUUGCUCACCACCAAGUGUAAUCAAUAGCAAAGCACUGACAGUUCAUAGCAGUAGUGAAAUCUGAAAUAACUAAGAAUUAAUCAGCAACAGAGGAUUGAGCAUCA | 0.138 ratio
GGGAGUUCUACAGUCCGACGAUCCUUGGCCAGGAGGGGGAUGCCAGCUAUCUUGCUUCUGAAAUAUCUACCUGGGAUGGAGUGAUUGUGACACCCUCAGAAAAGGCUUAUGAGAAGCCACCUGAGAAGAAGGAGGGGGAGGAACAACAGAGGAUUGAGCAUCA | 0.252 ratio
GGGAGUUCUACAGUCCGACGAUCUUCUUCGCCUUUGAGUGCCGCUACCUGGCUGUUCAGCUGUCUCCUGCCAUCCCUGUAUUUGCUGCCAUGCUCUUCCUUUUCUCCAUGGCUACACUGUUGAGGACCAGCUUCAGUGACCCUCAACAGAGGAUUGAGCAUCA | 0.242 ratio
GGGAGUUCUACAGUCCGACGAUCAGGGAGCAACACAUUCGGAGAGACAAGGCUACCAGCAACAUCUGUACAGCUCAGGCCCUCUUGGCGAAUAUGGCUGCCAUGUUUGCAAUCUACCAUGGUUCCCAUGGGCUGGAGCAUAUUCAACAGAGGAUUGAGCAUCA | 0.112 ratio
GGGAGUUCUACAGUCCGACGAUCAUCCAGGCAGCUGACAGCACAGCCGUGAAUGGCAGCAUCACACCCACAGACAAAAAGAUAGGAUUUUUGGGCCUUGGUCUCAUGGGAAGUGGAAUCGUCUCCAACUUGCUAAAAAUGGGUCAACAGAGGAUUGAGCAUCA | 0.415 ratio
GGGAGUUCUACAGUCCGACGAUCGGGGUGAGAAAGGAUUUGAAACCAUAAAGUGUUUUAAAGAAAUGAACUCUUCAGAAACAGACUUCCUCCUCUUUUCCUUUCUCCUCUGCUCCACAGCCUGUGCUCUGUUCAGUUCCCAACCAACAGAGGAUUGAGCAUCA | 0.269 ratio
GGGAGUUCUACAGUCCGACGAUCAUGGCUUACCAUCAUGACAGCAGACGGAUAUUUGUGGGCCAGGAUAAUGGAGCUGUAAUGGAAUUUCACGUUUCUGAAGAUUUUAAUAAAAUGAACUUUAUCAAGACCUACCCAGCUCAUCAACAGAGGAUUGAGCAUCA | 0.117 ratio
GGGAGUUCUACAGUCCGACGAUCAGUUAUUCAGCAGGAAGGGGCUUAGAGGGGAAUGCUAACUCACCUGCCCACCUGAGAGGACCAGAACAGACGUCUGGGCAGACGGCUAAGGAUCCCUCUGUCAGCAUUCGCUAUUUGGCACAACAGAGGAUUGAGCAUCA | 0.218 ratio

Set 2
Target: Histone acetyltransferase KAT6A, winged helix 2, GST fusion (KAT6A, Homo sapiens, UniProt Q92794, residues 85-181)
Technique: protein binding microarray
Form: double-stranded DNA, one strand shown
Medium: in vitro
Concentration: not given
Notes: 8-mer, flanks averaged, mean of 2 arrays, mostly near background
Relative to: not given
Reading: higher = stronger binding
Residues (chain): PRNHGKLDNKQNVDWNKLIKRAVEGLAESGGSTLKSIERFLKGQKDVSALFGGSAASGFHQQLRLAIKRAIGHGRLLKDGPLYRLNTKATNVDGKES
Sequence | E-score
AAGTCCGC | 0.019
GAAAAAAA | 0.214
GCCAGTCA | -0.0377
TCAGGTCA | 0.0696
ACCCCACG | -0.16
CGAGACCG | 0.147
CTAGTGTC | 0.0232
CACGTTTC | -0.118
CAACCCAG | -0.0419
CTCGGGTA | 0.0536
CCTCTGAA | -0.0367
ATATAGTA | -0.114
ACCACTCC | -0.000685
CCTATCTC | -0.205
CGGGCGGA | 0.176
GTCCCAAA | 0.1
AGTACTAG | 0.0825
ACCGCTTC | 0.0147
CGCCTCAC | 0.218
CGTAGGCA | -0.0683
ATTGCCAC | 0.112
ACACGTAA | -0.203
GAAATGCC | -0.0018
AAGGACAC | 0.0189
AGAGGATA | -0.0486

Set 3
Target: Prothrombin, mature alpha-thrombin (F2, Homo sapiens, UniProt P00734)
Technique: aptamer microarray, sandwich
Form: DNA with 2'F-ANA
Medium: in vitro
Concentration: 200 nM
Notes: whole 15-mer aptamer, many near background
With: Cy3 exosite-II aptamer, 400 nM
Reading: higher = stronger binding
Sequence: GGTTGGTGTGGTTGG
Modification | mean fluorescence intensity [a.u.]
2'F-ANA at 1 2 4 9 12 13 14 15 | 52.1
2'F-ANA at 1 3 5 7 9 10 11 12 13 | 58.8
2'F-ANA at 6 7 8 11 12 13 | 660
2'F-ANA at 2 4 5 8 9 10 11 14 15 | 50.6
2'F-ANA at 1 3 4 6 7 9 10 13 15 | 53.2
2'F-ANA at 2 3 7 8 10 12 | 542
2'F-ANA at 1 3 5 7 9 10 11 14 15 | 83.6
2'F-ANA at 4 8 | 406
2'F-ANA at 2 3 5 6 9 10 12 14 15 | 51.4
2'F-ANA at 1 4 5 6 9 10 | 49.6
2'F-ANA at 2 3 4 6 7 8 9 12 13 14 15 | 316
2'F-ANA at 1 2 5 7 10 12 | 57.8
2'F-ANA at 2 3 9 11 12 13 | 870
2'F-ANA at 3 7 8 9 | 1260
2'F-ANA at 3 7 9 11 14 15 | 574
2'F-ANA at 1 2 4 7 9 11 12 13 14 | 50.2
2'F-ANA at 2 5 7 8 9 10 12 13 | 48.8
2'F-ANA at 2 5 7 9 11 12 15 | 111
2'F-ANA at 2 3 4 14 15 | 327
2'F-ANA at 1 2 3 4 6 7 8 9 | 250
2'F-ANA at 1 2 4 5 7 8 9 10 13 15 | 56.2
2'F-ANA at 4 5 6 8 9 11 13 14 15 | 51.3
2'F-ANA at 2 3 4 6 7 8 10 11 13 15 | 157
2'F-ANA at 2 3 5 6 8 9 10 11 14 15 | 51.5
2'F-ANA at 1 2 3 6 8 9 10 11 14 15 | 52.5

Set 4
Target: Ras GTPase-activating protein-binding protein 1, RRM domain (G3BP1, Homo sapiens, UniProt Q13283)
Chain of UniProt Q13283 (whole entry, looked up): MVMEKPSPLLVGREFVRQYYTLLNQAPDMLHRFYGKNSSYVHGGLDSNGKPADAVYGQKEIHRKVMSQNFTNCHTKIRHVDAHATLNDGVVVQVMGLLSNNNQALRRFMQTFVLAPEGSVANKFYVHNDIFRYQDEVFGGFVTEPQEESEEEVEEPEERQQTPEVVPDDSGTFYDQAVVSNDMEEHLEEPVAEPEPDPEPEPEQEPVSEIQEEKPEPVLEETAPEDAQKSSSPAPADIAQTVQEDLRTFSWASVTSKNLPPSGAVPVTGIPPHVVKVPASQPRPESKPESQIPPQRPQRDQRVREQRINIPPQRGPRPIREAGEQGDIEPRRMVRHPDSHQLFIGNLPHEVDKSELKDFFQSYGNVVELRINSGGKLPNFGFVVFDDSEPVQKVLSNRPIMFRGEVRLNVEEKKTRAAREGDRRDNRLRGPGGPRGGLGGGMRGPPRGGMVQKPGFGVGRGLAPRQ
Technique: RNA Bind-n-Seq
Form: RNA
Medium: in vitro
Concentration: 1 µM
Notes: whole 134-nt RNA, ends assumed
With: 150 mM KCl
Relative to: input library
Reading: higher = stronger binding
Sequence | log2 enrichment
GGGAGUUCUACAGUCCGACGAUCUAACUUUAGAGGAGGAUCUUAUGGAUAUGGCAGUGGACGUGGAUUUGGGGAUGGCUAUAAUGGGUAUGGAGGAGGACCUGGAGGUGGCAAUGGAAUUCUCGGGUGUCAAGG | -0.727
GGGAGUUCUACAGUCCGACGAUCAGUCCUGUGCUACACAUCGUAUGUACCGAAUCAAAUUUUUUUAAACCCAAAUUUAAAAAAGUAUUAUGUUACGCCGUUCGGAUCUGCACUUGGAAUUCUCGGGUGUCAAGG | -0.598
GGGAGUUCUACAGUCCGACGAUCUUUGAUGACAGUCUGCAGGAGCUGCCUGGUGAAGUACCUGGAGGAGAACAACACCUGCCCCACCUGCAGGAUUGUGAUCCACCAGAGCCAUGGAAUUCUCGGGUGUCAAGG | -0.297
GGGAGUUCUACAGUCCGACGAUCCACAGACAACACGCACCCACACAGACACAGAGGGAAGGGGUUGGGAUGGGGACAGGGUGCACAGCAGGGCGGGCUAGGACCCCAGCCCCUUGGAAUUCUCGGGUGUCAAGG | -0.475
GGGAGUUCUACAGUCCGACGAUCCAAGUCCUGUGCUACACAUCGUAUGUACCGAAUCGGUUUGGUUUGGGGUUUGGGGAAAGUAUUAUGUUACGCCGUUCGGAUCUGCACUUCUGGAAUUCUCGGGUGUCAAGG | -0.272
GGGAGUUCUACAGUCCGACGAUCCACAGACAACACGCACCCACACAGACACAGAGGGAAGGGGUUGGGACGGGGACAGGGUGCACAGCAGGGCGGGGUAGGACCCCAGCCCCUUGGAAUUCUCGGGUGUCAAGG | -0.142
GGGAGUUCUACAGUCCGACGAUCCCUCAAGUCCUGUGCUACACAUCGUAUGUACCGAAUCGGGCGGGCGGGGCGGGAAAGUAUUAUGUUACGCCGUUCGGAUCUGCACUUCCAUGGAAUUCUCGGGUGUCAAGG | 0.686
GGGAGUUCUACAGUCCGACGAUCUAACUUUAGAGUAGGAUCUGAUGGAUAUGGCAGUGGACGUGGAUUUGGGGAUGGCUAUAAUGGGUAUGGAGGAGGACCUGGAGGUGGCAAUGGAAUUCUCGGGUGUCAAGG | -0.893
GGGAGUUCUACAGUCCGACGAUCACCAUGAAAGUGGGCAUCUUUGGGAAGUGGGGCAAGGGGGGGAUAGGGAGGGGGGUAACACUUUGGGAACAGGUGGUCCCAGGUCGUUUCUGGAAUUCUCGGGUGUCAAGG | -0.223
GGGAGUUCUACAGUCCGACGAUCCUGUGCUACACAUCGUAUGUACCGAAUCGGGAAAAAAAGGGAAAAAAAGGGUUUUUUUGGGAAAGUAUUAUGUUACGCCGUUCGGAUCUGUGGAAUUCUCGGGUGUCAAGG | -0.0454

Some of these lines once more (set 3):
Modification | mean fluorescence intensity [a.u.]
2'F-ANA at 1 2 4 5 7 8 9 10 13 15 | 56.2
2'F-ANA at 1 3 4 6 7 9 10 13 15 | 53.2
2'F-ANA at 3 7 9 11 14 15 | 574
2'F-ANA at 1 2 3 4 6 7 8 9 | 250
2'F-ANA at 2 3 7 8 10 12 | 542
2'F-ANA at 2 3 9 11 12 13 | 870
2'F-ANA at 1 3 5 7 9 10 11 12 13 | 58.8
2'F-ANA at 1 2 3 6 8 9 10 11 14 15 | 52.5
2'F-ANA at 6 7 8 11 12 13 | 660
